Measured values gathered from unrelated publications.
Each numbered part is a random draw from the data of one study; scales do not carry over between parts. Changes are numbered by the printed parent chain.

Set 1
Target: Sal-like protein 4, full length isoform B (SALL4, Homo sapiens, UniProt Q9UJQ4-2, residues 1-616)
Technique: universal PBM
Molecule type: double-stranded DNA, one strand shown
Medium: in vitro
Concentration: not given
Notes: 8-mer, flanks averaged, mean of replicates
Direction: higher = stronger binding
Quantity: E-score
Residues (chain): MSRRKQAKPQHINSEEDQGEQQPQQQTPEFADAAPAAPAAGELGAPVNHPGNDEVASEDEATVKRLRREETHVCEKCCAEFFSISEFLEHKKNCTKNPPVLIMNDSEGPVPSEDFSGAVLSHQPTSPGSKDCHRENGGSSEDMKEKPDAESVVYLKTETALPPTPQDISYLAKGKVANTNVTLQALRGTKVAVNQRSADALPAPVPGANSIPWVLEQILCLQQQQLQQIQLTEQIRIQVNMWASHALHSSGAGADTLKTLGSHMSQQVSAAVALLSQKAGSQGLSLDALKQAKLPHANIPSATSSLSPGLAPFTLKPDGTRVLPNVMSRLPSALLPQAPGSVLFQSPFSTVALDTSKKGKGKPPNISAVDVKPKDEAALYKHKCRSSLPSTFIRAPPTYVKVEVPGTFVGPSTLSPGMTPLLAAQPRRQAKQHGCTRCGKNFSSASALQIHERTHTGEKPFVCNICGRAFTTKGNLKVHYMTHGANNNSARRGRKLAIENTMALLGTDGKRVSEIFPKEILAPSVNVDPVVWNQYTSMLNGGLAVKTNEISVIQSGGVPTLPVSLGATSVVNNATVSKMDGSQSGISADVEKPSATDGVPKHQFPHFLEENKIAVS
GAGTAGCC: -0.268
ACATCTCA: 0.155
CGGACGCC: -0.39
CGATGGGA: -0.0423
GACTGAAC: -0.195
CCAGTCAG: -0.17
CGAGAGGA: -0.084
ACGAGCCT: -0.148
ACCCTTAG: -0.035

Set 2
Target: RNA binding protein fox-1 homolog 2, RRM domain, GST-SBP tag (RBFOX2, Homo sapiens, UniProt O43251-10, residues 100-194)
Technique: RNA Bind-n-Seq
Molecule type: RNA
Medium: in vitro
Concentration: 365 nM
Notes: natural RNA segment, single round, ends assumed
Baseline: no-protein control
Direction: higher = stronger binding
Quantity: RBNS enrichment (R)
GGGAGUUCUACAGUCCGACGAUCCAUGUAAGAAUCAGAGCUGCUCCUUCCUGUGAAUCCUAGGUGGCCCUAUGUCUUCUGUGGAGUUACAGUAUAAAGCAGGGAGCUAAUUAAGAGUAUUAAAACUUAAAACCUGGAAUUCUCGGGUGCCAA: 0.381
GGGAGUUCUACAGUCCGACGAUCCUAGAGCCAAGUGAGUGCAUGUCUAGGGUUCCCAUGUUUACAGUAAGGACCGGCUCAGGCACUGACCCUCUGAGUCACGUGAAUGAGGACGAAGAAUUUGGAAUAGGUUUUGGAAUUCUCGGGUGCCAA: 7.98
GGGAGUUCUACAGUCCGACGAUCGUCUACACUGGCAUAGCACGAGCCAUGUAAGCUUCUUUUUUUUCUAUGCAAGAGUAUUGAUGUAUGUGCUGAAUCUUCACAGACUUGUCAAUACACAGGCAGUAUUCUAAUGGAAUUCUCGGGUGCCAA: 5.95
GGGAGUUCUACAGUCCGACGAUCAAUCAAAUGUGAAGUUGAUCCAGAGAGAGCCUAGGUGACUGGGGAGCCAUUGAGUAGGGAAUUGUAUUGGAUGAUGGUUUUCAUUUUUGUUACUGAAAACAAAGUCUUGUUGGAAUUCUCGGGUGCCAA: 1.4
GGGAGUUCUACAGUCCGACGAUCAUCACAUAGCUUCAAAAACUCCUCCAGUUUGUGACAACAUGACAGGUGUGACAGCAUGACAGGUUUGCUCUGCUUCUGCAGAGUGGGCCCCAGAGGUCACUUAGGACUGAUGGAAUUCUCGGGUGCCAA: 1.05
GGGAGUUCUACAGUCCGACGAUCCUGCUUCUGUAACCAAGGUCUGGCAGAGUAGCGAUUCCCUGCGUGUUCAGGAAGGGCCCAUUGUGUAUACCUGCCUCUUGUCACUGGCUUGGUGCCAGUCCCUCAGUCCCUGGAAUUCUCGGGUGCCAA: 0.715
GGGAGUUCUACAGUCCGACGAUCCCUAGCCUCGUAGAGACCAAAGGCCGCCCCCGCCUGCUGGGGUUCCUCCCAGCACCCCAGCUUGCUGGCUGCCCUCUUUGCCUUCUGGCCUCCAGCUGGGUGUGGGGGGGUGGAAUUCUCGGGUGCCAA: 0.425
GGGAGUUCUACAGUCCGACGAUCAUUUUCUAUAGUAAUCUGUUGUACAUUUUAAGAAGUAAAACUAGGAAUUUAGGAGUGAUGUGUGACAUUUCUGACAUGGAGUUACCAUCCCCACAUGUAUCACAUACUGUUGGAAUUCUCGGGUGCCAA: 0.461

Set 3
Target: CCNF, cyclin fold, Cln2 fusion (human)
Technique: yeast growth competition, sequencing
Medium: yeast
Notes: strong parent motif
Baseline: not given
Direction: higher = stronger binding
Quantity: normalised enrichment score
Starting sequence: SAMHD1 docking peptide (human); ASKSRVQLFKDDP
Q7R: 1.62
D12E: 1.7
Q7I: -0.248
Q7G: 0.493
Q7W: 0.597
F9D: 0.152

Other studies, line by line
PhoQ, residues 284 288 289 292 302 303 AQGLTV — fold induction (PhoP, residues 12 14 15 18 19 TPLRH (Escherichia coli, UniProt P23836); Sort-seq, item: YFP reporter; E. coli; PhoQ-PhoP variant library, together with: 10 µM Mg2+; baseline: high Mg2+ state, higher = stronger signaling): 0.743

Repeated from above (set 1):
ACATCTCA: 0.155
